Assay results from different studies.
A part holds a random share of what one study measured. “And” joins repeats or separate records; there may be more than shown.

Series 1
Organism: SARS-CoV-2
Effect on: cytopathic effect
Cells: Vero E6
Concentration: 10 µM
SMILES	inhibition
COc1ccc2nc(S)[nH]c2c1	0.27%
Cc1c(OCC(F)(F)F)ccnc1C[S+]([O-])c1nc2ccccc2[nH]1 (stereo not shown)	1.7% and -1.6%
CCC1=C[C@@H]2CN(C1)Cc1c([nH]c3ccccc13)[C@@](C(=O)OC)(c1cc3c(cc1OC)N(C)[C@H]1[C@@](O)(C(=O)OC)[C@H](OC(C)=O)[C@]4(CC)C=CCN5CC[C@]31[C@@H]54)C2.O=C(O)C(O)C(O)C(=O)O.O=C(O)C(O)C(O)C(=O)O	-16.7%
O=[N+]([O-])c1ccc(O)c2ncccc12	6.3%

Series 2
Target: RNA binding protein fox-1 homolog 2, RRM domain, GST-SBP tag (RBFOX2, Homo sapiens, UniProt O43251-10, residues 100-194)
Method: RNA Bind-n-Seq
Form: RNA
Sample: in vitro
Concentration: 365 nM
Setting: natural RNA segment, single round, ends assumed
Baseline: no-protein control
Direction: higher = stronger binding
Constant ends, left off below: GGGAGUUCUACAGUCCGACGAUC … UGGAAUUCUCGGGUGCCAA
Construct (chain): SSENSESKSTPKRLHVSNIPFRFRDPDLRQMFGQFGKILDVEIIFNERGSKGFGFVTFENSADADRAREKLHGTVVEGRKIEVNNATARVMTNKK
Oligonucleotide	RBNS enrichment (R)
UGGGAAAAGACCAGGGCUUUUCCCAGGAAUAUCCCAAACUUCGGAAACAAGUUAUUCUCUUCACUCCCAAUAACUAAUGCUAAGAAAUGCUGAAAAUCAAAGUAAAAAAU	0.706
UUAACGGAGAUCAGUGGGAGUUACAGGCAUCUCAGUUAUCAAGGAAUUGAACUCCUUGAGAGAUAGUUGGGUUUACUAAAUUAUUCUCUCUAAAAUGUCUCUGAGUGAAA	0.584
CAUUCCAGUUUUUGUUUUUAAUCAGGCUUUCUCUGGGAACUAGGUCUUUGCACCAGAGAGCAUUUUGCAUUCUGGACUUGAUAGACGCACCCCUUUUUAUACAGAUGUUU	0.571
UAUUUAUGUAGUAUUUCAAACAUUUCAAAAUGCUUUCAUCUAUGUUUAUCACAUUUUAAUACCACAGCACUUAUAAUGAUGUCACUACAUAUAGAAGCUCAAAGUUAAGG	0.399
AUUUUUGGGAAAGCAACGAGGUAAAAAUUAUGUUUCUCAGAUGCACUGCUACUUUGGCGUUAUUACUGUGUUCUCAGAAACUCGUUGUGCACCACUAGGAAUUAGUAGUA	0.608
UUUGCUUUGUUUAAGCAUCACAUUAAAGUUAAACUGUAUUUUAUGUUAUUUAUAGCUGUAGGUUUUCUGUGUUUAGCUAUUUAAUACUAAUUUUCCAUAAGCUAUUUUGG	0.705
ACACUUGUUAAACAUAUUGCCCCUCAAUUUUGCACACUAUAUUCUUGUAUAUUAUUUCAAAUAAAAGAAAAAAAAGGUCUGUCUUUGAUUUCUGGUUGACUGAAUUCAUG	0.81
GAUCUGCUUCAGGUGUAGUCUGGAAGGUUCCUUGGUAUGGCUCAUGAACACAGAGCUCAAAGAUACCGUCUUGAGAAAUCCUCCUUGGUACCAUGUGACCGGAGCAGAGG	0.289

Series 3
Target: PABPC1L2, full length, GST fusion (mouse, UniProt A0ABA7IW68)
Method: RNAcompete
Form: RNA
Sample: in vitro
Concentration: 20 nM
Setting: 7-mer, probes averaged, single round
Baseline: mean of 7-mers
Direction: higher = stronger binding
Residues (chain): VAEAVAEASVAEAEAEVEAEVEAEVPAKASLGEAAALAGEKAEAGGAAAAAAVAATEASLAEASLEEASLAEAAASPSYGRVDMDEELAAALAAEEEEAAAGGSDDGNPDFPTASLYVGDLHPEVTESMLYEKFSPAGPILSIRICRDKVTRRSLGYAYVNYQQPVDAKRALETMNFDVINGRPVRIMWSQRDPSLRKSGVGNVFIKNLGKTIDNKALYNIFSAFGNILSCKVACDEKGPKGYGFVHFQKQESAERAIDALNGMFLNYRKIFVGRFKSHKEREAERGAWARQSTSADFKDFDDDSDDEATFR
Oligonucleotide	7-mer Z-score
CGAAUAG	-0.171
UACCACU	-0.24
CGCCUCA	-0.373
UCGACAC	-0.0935
CACCAAG	-0.0138
GCAUUUA	0.35
AAUCUCG	-0.0609
AGGCGGC	0.204

Series 4
Target: Replicase polyprotein 1ab, nsp13 helicase (rep, Severe acute respiratory syndrome coronavirus 2, UniProt P0DTD1)
Mode: inhibitor
Concentration: 20 µM
SMILES	inhibition [%]
COc1ncc(-c2ccc3nccc(-c4ccnnc4)c3c2)cc1NS(=O)(=O)c1ccc(F)cc1F	12.5
C[N+](C)(C)CC(=O)O	7.47
CN1CCN(c2c(F)cc3c(=O)c(C(=O)O)cn4c3c2OCN4C)CC1	0.33
COC(F)(F)C(Cl)Cl	8.43
O=C1c2ccccc2C(=O)C1c1ccccc1	11.3
CCOc1ccc(S(=O)(=O)O)c2cccnc12	-1.07
CC[C@@H](NC(C)C)[C@@H](O)c1ccc(O)c2[nH]c(=O)ccc12	2.61
CN(C)CCOC(=O)COc1ccc(Cl)cc1	-1.34
N#Cc1cnc2c(Cl)cc(NCc3cn(CCN4CCCCCC4)nn3)cc2c1Nc1ccc(F)c(Cl)c1	4.07
COC(=O)c1cc2c(C(F)(F)F)cc(-c3ccccc3)cc2n1O	3.33
COc1ccc2c(c1)N(C[C@H](C)CN(C)C)c1ccccc1S2	8.25
FC(F)(F)c1cc(CO[C@H]2CCCN[C@H]2c2ccccc2)cc(C(F)(F)F)c1	-7.06
CN1[C@@H]2C[C@@H](OC(=O)[C@H](CO)c3ccccc3)C[C@H]1[C@@H]1O[C@@H]12	5.16
O=C(Nc1ccncc1)c1cc([N+](=O)[O-])ccc1Cl	3.05
CC(=O)N1CCN(CCOc2ccc(C3CCN(C4=Nn5c(nnc5C(F)(F)F)CC4)CC3)cc2)CC1	4.99
COc1cc(C(=O)NS(=O)(=O)c2ccccc2C)ccc1Cc1cn(C)c2ccc(NC(=O)OC3CCCC3)cc12	39.5
C#C[C@]1(OC(=O)CCCCCC)CC[C@H]2[C@@H]3CCC4=CC(=O)CC[C@@H]4[C@H]3CC[C@@]21C	-4.04
O=C(O)CCc1c[nH]c2ccccc12	-2.05
C[C@](N)(Cc1ccc(O)cc1)C(=O)O	-2.81

Series 5
Cell line: HEK-293T/ACE2
Concentration: 10 µM
Time: 16 h
Baseline: vehicle
SMILES	viability [%]
O=C(O)CCCc1ccccc1	102
NC[C@H]1O[C@H](O[C@H]2[C@H](O)[C@@H](O[C@H]3O[C@H](CO)[C@@H](O)[C@H](N)[C@H]3O)[C@H](N)C[C@@H]2N)[C@H](O)[C@@H](O)[C@@H]1O	99.1
COC(=O)[C@H]1[C@H]2C[C@@H]3c4[nH]c5cc(OC)ccc5c4CCN3C[C@H]2C[C@@H](OC(=O)c2cc(OC)c(OC)c(OC)c2)[C@@H]1OC	100
CCOC(=O)C1=C(COCCN)NC(C)=C(C(=O)OC)C1c1ccccc1Cl (stereo not shown)	97.6

Some of these lines once more (series 1):
SMILES	inhibition
COc1ccc2nc(S)[nH]c2c1	0.27%
Cc1c(OCC(F)(F)F)ccnc1C[S+]([O-])c1nc2ccccc2[nH]1 (stereo not shown)	1.7% and -1.6%
CCC1=C[C@@H]2CN(C1)Cc1c([nH]c3ccccc13)[C@@](C(=O)OC)(c1cc3c(cc1OC)N(C)[C@H]1[C@@](O)(C(=O)OC)[C@H](OC(C)=O)[C@]4(CC)C=CCN5CC[C@]31[C@@H]54)C2.O=C(O)C(O)C(O)C(=O)O.O=C(O)C(O)C(O)C(=O)O	-16.7%
O=[N+]([O-])c1ccc(O)c2ncccc12	6.3%
